Experimental data from different studies.
Compare with care: the assays were run in different laboratories.
EGFR L858R/T790M: Epidermal growth factor receptor (EGFR, Homo sapiens, UniProt P00533, L858R/T790M)
EGFR T790M: Epidermal growth factor receptor (EGFR, Homo sapiens, UniProt P00533, T790M)

Structure (SMILES) | target | assay | conditions | how to read | remaining binding [%]
C=CC(=O)N1CCCC(n2c(=O)c3ncccc3n(Cc3ccc(Oc4ccccc4)cc3)c2=O)C1 (stereo not shown) | EGFR L858R/T790M | cell-free assay, competition with immobilised ligand | 1 µM | – | 89
CNC(=O)C1CCN(c2cc(C)c(F)cc2NC(=O)c2ccc(-c3cc(O)ccc3C)c(C)c2)CC1 | EGFR L858R/T790M | binding, competition with immobilised ligand | 1 µM | – | 56
CNC1C[S+]2CC[S+]3CC[S+](C1)[Ru-4]321([N]=C=S)[n]2c3ccc(OC)cc3c3c4c(c5cc(F)c[n+]1c5c32)C(=O)NC4=O (stereo not shown) | EGFR (Homo sapiens, UniProt P00533, del746-750) | KinomeScan | 0.1 µM | reference: untreated | 61
Nc1ncc2c(n1)-c1c([nH]c3ccc(C4=CCOCC4)cc13)CCC2 | EGFR T790M | binding, competition with immobilised ligand | 1 µM | – | 84
CCN1CCN(Cc2ccc(C(=O)Nc3ccc(C)c(NCc4cnc5[nH]ccc5c4OC)c3)cc2C(F)(F)F)CC1 | EGFR (Homo sapiens, UniProt P00533, G719C) | binding, competition with immobilised ligand | 1 µM | – | 1.3
COc1c(Cl)cccc1Nc1c(-c2ccncc2C#C[C@@]2(C)CCCN2C(=O)/C=C/CN(C)C)[nH]c2c1C(=O)NCC2 | EGFR L858R/T790M | cell-free assay, competition with immobilised ligand | 3 µM | – | 2.1
CCN1CCN(Cc2ccc(NC(=O)c3ccc(C)c(NC(=O)c4cncc(-c5cccs5)c4)c3)cc2C(F)(F)F)CC1 | EGFR (Homo sapiens, UniProt P00533, L858R) | binding, competition with immobilised ligand | 1 µM | – | 0.7
Cc1ccc(-c2c(/C=C(\C#N)C(=O)NC(C)C)n(CCCO)c3ncnc(N)c23)cc1 | EGFR T790M | cell-free assay, competition with immobilised ligand | 1 µM | – | 100
CC(C)=CC1OC(C)(C)C2C=C3C(=O)C(Cl)=CC(O)C3C3C(O)C4OC4C(=O)C132 (stereo not shown) | EGFR (Homo sapiens, UniProt P00533) | cell-free assay, competition with immobilised ligand | 10 µM | – | 86
C=CC(=O)N1CCc2ccc(-n3c(=O)ccc4cnc5ccc(-c6cnn(C)c6)cc5c43)cc21 | EGFR (Homo sapiens, UniProt P00533, A750P/del747-749) | KINOMEscan | 1 µM | reference: control | 100
